Literature values as cited in several papers.
Each line is one published result; not all experiments were run side by side. ± gives the spread as reported.
B1: CCL1; sequence looked up; chain KSMQVPFSRCCFSFAEQEIPLRAILCYRNTSSICSNEGLIFKLKRGKEACALDTVGWVQRHRKMLRHCPSKRK
Chain of UniProt P12821 (whole entry, looked up): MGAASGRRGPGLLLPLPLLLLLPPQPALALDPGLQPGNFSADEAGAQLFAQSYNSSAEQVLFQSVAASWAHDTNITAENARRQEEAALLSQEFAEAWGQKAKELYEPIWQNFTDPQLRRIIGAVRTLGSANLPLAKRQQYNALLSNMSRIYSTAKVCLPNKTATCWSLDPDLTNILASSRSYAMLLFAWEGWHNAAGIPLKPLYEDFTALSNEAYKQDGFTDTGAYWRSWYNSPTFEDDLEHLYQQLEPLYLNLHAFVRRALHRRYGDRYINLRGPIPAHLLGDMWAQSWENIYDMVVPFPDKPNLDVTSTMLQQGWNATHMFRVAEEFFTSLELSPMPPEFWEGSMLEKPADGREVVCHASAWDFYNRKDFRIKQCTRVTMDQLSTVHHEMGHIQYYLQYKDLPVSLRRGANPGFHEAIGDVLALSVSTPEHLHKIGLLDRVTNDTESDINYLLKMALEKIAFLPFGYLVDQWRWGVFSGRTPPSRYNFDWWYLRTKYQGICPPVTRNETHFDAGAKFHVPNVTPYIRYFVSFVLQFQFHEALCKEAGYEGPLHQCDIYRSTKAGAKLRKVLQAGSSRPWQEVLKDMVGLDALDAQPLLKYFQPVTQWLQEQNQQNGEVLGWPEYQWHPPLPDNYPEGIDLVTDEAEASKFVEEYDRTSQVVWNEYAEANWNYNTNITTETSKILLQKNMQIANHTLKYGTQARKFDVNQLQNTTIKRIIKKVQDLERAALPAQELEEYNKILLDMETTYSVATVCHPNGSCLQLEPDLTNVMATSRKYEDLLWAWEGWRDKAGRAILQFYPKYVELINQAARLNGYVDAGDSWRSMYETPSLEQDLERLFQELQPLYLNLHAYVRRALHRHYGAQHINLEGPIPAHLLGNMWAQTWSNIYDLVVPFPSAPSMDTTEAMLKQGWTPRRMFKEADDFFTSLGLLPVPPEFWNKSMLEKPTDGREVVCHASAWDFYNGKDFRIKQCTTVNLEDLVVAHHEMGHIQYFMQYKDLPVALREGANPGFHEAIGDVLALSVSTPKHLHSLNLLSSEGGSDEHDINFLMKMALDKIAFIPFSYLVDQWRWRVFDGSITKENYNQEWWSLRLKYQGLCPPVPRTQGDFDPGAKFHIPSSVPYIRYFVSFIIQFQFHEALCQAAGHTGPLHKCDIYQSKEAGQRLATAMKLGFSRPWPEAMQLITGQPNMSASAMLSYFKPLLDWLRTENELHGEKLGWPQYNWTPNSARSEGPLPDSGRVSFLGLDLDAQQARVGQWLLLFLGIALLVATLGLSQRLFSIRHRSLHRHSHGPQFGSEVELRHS
Chain of UniProt P45481 (whole entry, looked up): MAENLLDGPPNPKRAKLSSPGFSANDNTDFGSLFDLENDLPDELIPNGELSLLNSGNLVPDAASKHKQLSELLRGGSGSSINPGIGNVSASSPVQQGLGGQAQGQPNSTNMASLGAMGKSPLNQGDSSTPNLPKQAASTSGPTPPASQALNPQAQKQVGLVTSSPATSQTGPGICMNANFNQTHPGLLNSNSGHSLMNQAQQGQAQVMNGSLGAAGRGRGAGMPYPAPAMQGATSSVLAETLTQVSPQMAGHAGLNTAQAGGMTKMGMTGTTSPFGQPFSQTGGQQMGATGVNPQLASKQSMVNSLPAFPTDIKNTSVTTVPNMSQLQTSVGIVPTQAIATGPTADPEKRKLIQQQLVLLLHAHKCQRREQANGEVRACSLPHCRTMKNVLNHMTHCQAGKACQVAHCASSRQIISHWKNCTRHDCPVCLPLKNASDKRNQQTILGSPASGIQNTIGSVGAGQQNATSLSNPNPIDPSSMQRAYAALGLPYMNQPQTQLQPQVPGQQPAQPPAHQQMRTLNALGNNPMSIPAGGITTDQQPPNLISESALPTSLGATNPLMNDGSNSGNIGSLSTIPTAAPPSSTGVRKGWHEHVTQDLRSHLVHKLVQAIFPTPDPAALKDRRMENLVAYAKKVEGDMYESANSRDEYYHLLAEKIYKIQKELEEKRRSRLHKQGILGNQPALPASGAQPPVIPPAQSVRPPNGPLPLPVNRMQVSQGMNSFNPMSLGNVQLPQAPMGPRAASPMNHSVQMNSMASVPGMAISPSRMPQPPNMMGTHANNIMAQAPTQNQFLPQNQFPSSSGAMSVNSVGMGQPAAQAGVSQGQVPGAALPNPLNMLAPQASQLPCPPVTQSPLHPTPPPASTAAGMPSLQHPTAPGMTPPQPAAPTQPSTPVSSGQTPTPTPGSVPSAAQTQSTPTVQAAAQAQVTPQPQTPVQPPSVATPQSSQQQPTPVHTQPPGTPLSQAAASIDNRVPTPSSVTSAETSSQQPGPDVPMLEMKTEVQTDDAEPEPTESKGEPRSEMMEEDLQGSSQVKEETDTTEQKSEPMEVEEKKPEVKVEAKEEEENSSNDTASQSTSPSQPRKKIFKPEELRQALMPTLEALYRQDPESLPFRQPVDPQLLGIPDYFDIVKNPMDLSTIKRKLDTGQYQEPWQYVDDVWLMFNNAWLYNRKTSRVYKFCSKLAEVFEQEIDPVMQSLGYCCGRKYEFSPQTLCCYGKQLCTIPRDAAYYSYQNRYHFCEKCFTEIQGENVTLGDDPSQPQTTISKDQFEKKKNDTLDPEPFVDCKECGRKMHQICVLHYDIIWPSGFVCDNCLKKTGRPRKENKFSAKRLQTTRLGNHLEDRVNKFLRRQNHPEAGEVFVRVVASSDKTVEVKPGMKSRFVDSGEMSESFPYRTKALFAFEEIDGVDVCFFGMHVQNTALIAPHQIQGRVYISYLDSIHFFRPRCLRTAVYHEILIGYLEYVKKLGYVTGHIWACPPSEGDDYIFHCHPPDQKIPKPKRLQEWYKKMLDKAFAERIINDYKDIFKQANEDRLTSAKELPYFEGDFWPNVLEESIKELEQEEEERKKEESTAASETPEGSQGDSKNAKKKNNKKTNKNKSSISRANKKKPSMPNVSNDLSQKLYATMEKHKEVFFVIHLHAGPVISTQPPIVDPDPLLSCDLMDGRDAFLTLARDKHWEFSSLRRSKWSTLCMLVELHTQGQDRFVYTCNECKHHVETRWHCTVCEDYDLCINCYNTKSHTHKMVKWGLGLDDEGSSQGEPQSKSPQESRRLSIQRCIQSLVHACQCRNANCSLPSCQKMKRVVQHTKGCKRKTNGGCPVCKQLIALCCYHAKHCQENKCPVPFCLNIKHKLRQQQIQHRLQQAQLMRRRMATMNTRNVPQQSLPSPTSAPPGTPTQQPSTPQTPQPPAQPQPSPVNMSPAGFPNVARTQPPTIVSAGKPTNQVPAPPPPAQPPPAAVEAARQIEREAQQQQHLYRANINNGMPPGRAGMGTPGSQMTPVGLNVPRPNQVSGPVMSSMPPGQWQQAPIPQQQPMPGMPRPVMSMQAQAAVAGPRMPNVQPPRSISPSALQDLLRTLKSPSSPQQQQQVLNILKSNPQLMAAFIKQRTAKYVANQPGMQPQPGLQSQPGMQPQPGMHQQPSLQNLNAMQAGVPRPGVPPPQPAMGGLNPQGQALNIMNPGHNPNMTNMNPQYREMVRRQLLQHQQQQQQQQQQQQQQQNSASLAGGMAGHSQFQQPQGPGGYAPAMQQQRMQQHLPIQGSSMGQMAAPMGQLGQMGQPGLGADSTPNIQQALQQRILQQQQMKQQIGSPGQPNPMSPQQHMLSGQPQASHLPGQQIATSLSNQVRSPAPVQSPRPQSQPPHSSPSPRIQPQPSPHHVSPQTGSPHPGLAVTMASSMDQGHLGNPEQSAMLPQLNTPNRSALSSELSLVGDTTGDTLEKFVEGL
Chain of UniProt P04692 (whole entry, looked up): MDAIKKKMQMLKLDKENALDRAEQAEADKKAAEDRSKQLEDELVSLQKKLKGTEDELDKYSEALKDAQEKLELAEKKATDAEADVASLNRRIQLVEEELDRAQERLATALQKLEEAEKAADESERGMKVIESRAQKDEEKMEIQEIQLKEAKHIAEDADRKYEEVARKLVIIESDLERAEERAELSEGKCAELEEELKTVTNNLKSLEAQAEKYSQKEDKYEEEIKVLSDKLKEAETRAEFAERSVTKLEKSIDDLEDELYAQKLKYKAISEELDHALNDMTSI

| Substance | tested on | assay | test system | conditions | how to read | quantity | value |
| --- | --- | --- | --- | --- | --- | --- | --- |
| VAIA | PC-12 | Aβ42-induced toxicity, inhibitor, MTT | peptide | with: Aβ42 | – | IC50 | 15 ± 3 µM |
| KQKTLKKVWKLSEKVLIFASAFAKKAGAAEATLVL | Pseudomonas aeruginosa | – | peptide, ATCC 15692 | – | – | MIC | 2 µM |
| teicoplanin | – | – | healthy human subjects | dose not given | – | volume of distribution steady-state | 0.56 L/kg |
| indirubin-3'-monoxime | HUVEC | [3H]thymidine incorporation | – | – | – | IC50 | 0.36 µM |
| substance P | NK1 receptor, truncated | – | – | – | baseline: truncated over full-length | affinity loss at truncated receptor | ~10 fold |
| MAIRIIGRLARVRARVVARVRSRLLADDPPEDLLRVARRKGRRWFLFLS | Bacillus subtilis | – | peptide | – | – | MIC | 1.6 µM |
| STFGYRRGLSKYESIDEDELLASLSAEELKELERELEDIE (Lmod2(2-41); sequence looked up) | Tropomyosin alpha-1 chain (Tpm1, Rattus norvegicus, UniProt P04692) | CD thermal unfolding | peptide | – | complex | melting temperature | 36.4 ± 0.1 °C |
| GGVVIA | PC-12, differentiated | MTT | peptide | 10-fold excess over Aβ42, with: Aβ42 5 µM | baseline: untreated | viability | 73 ± 2% |
| MRNFFKTRLRKYGGKKELLKKSRAFGLKTKKRSGSFFPRRLAYKEEFY | Escherichia coli | – | peptide | – | – | MIC | > 100 µM |
| insulin (human) | BBB endothelial monolayers | outcome: increased | – | concentration not given | – | transendothelial electrical resistance | increased |
| B1 (CCL1) | CCR8 Y42A mutant | IP accumulation, agonist | – | – | – | EC50 | 11 nM |
| fibrinogen | integrin αIIbβ3 | laser trap | – | zero force | – | bond lifetime | ~15 s |
| AIVV | PC-12 | Aβ42-induced toxicity, inhibitor, LDH release | peptide | with: Aβ42 | – | IC50 | 22 ± 3 µM |
| GVPMGSVIKKRRKRMAKKKHRKLLRKTRHQRRNKK | Escherichia coli | – | peptide, DH5α | – | – | MIC | 7 µM |
| LLGGSLSSLDAAFR | – | isocratic RP-HPLC, C18 column | peptide, water/acetonitrile, 0.1% TFA | 25 °C | – | retention coefficient S | 19.4 |
| pegcetacoplan | Complement C3 (Homo sapiens, UniProt P01024) | – | healthy human volunteers | 270 mg/day, 28 days | – | serum level | increased |
| RWIKIQLQIRRWKNKK | Staphylococcus aureus | – | peptide, methicillin-resistant | – | – | MIC | 93.8 µg/mL |
| epoetin alfa | UT7/EPO | cell proliferation, agonist | – | – | – | EC50 | ~0.035 nM |
| RGDSPA | integrin αIIbβ3 | AFM dynamic force spectroscopy | peptide | – | – | dissociation rate constant | ~1.5 s⁻¹ |
| QYLPR | ACE (Homo sapiens, UniProt P12821) | – | peptide | – | – | IC50 | 655 µM |
| MVGGVVIA | PC-12, differentiated | MTT | peptide | 10-fold excess over Aβ42, with: Aβ42 5 µM | baseline: untreated | viability | 82 ± 4% |
| MMKIRNTLRSRKEAVRRIFSLRRRSVF | Bacillus subtilis | – | peptide | – | – | MIC | 0.4 µM |
| AVIA | PC-12 | Aβ42-induced toxicity, inhibitor, LDH release | peptide | with: Aβ42 | – | IC50 | 22 ± 5 µM |
| ifinatamab deruxtecan | – | – | patients with SCLC | dose not given | – | objective response rate | 58% |
| HIF1A CTAD (Homo sapiens, UniProt Q16665) | CBP TAZ1 domain (Mus musculus, UniProt P45481) | fluorescence anisotropy | – | – | – | Kd | 0.01 µM |
| LLSAAHFR | – | isocratic RP-HPLC, C18 column | peptide, water/acetonitrile, 0.1% TFA | 25 °C | – | retention coefficient S | 19.9 |
